Results pooled from the literature.
Compare with care: the assays were run in different laboratories. “And” joins repeats or separate records; there may be more than shown. ± gives the spread as reported.
Chain of UniProt Q00987 (whole entry, looked up): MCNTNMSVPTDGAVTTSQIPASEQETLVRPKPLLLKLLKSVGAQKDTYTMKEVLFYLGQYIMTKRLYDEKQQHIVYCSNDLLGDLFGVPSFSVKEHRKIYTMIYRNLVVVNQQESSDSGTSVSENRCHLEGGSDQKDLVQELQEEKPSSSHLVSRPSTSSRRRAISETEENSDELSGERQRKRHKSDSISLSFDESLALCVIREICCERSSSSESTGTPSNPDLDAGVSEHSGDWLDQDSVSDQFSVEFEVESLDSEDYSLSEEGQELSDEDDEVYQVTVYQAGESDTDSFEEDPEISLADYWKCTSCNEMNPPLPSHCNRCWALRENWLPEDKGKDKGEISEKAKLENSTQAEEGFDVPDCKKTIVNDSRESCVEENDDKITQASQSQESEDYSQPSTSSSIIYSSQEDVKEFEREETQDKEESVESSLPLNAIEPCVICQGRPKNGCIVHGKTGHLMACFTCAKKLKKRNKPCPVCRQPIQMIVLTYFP
Chain of UniProt Q9DB29 (whole entry, looked up): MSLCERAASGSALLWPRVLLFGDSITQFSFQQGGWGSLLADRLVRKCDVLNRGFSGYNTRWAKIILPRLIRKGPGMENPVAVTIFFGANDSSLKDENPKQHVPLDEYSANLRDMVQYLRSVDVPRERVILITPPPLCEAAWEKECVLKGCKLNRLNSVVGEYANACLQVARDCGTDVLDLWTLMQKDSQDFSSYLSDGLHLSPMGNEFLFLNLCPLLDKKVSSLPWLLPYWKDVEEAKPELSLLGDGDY
Chain of UniProt D0VWV4 (whole entry, looked up): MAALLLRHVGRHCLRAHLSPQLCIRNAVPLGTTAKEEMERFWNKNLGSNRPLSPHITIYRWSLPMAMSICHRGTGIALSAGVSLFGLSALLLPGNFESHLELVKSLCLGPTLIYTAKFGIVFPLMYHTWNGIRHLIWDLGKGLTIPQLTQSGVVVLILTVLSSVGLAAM
Chain of UniProt Q61206 (whole entry, looked up): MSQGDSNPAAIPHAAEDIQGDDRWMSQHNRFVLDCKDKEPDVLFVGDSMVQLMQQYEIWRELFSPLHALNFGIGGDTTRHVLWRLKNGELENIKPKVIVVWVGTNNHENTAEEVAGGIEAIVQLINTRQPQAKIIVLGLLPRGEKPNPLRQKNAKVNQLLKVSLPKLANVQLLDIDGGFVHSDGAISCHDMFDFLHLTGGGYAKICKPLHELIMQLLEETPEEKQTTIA
Chain of UniProt Q007T0 (whole entry, looked up): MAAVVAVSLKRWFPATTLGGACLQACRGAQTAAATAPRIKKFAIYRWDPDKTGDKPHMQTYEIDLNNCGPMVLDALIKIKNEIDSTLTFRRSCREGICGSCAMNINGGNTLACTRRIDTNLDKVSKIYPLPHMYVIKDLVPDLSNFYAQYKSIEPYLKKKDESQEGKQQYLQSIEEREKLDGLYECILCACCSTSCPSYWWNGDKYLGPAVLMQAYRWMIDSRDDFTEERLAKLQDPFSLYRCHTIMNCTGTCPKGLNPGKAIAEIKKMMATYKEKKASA
Chain of UniProt A5GZW8 (whole entry, looked up): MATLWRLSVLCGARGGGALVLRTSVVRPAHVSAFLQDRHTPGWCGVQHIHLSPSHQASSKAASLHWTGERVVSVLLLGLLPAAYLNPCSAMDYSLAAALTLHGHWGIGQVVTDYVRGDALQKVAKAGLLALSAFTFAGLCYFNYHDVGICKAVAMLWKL
Chain of UniProt Q6DWJ6 (whole entry, looked up): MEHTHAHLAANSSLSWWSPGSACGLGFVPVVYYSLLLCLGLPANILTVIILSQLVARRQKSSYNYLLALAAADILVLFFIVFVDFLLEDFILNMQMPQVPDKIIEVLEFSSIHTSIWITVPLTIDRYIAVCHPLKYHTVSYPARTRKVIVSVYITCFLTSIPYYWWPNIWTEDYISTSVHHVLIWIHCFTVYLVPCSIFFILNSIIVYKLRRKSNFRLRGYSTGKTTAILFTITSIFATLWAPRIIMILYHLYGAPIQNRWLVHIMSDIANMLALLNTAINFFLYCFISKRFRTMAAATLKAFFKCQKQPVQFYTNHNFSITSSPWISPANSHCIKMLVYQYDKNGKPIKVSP
Chain of UniProt Q9Y2J8 (whole entry, looked up): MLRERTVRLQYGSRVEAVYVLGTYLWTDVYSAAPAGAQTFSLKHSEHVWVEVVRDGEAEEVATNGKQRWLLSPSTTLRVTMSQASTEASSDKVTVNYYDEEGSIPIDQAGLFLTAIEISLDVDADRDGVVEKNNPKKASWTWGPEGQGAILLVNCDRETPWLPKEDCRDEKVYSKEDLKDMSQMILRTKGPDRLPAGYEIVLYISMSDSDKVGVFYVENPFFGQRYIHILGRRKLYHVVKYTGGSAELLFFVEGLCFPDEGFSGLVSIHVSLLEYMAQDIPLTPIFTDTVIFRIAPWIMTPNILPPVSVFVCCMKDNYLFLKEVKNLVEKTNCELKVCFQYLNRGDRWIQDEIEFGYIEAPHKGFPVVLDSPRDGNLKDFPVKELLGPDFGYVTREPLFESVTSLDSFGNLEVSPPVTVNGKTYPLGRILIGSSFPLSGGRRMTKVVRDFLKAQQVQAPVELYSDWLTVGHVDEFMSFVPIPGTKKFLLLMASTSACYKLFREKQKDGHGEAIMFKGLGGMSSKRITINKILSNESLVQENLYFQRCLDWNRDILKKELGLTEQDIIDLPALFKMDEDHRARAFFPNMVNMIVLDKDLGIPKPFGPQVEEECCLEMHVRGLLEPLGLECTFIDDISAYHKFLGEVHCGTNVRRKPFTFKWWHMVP
Chain of UniProt P37231 (whole entry, looked up): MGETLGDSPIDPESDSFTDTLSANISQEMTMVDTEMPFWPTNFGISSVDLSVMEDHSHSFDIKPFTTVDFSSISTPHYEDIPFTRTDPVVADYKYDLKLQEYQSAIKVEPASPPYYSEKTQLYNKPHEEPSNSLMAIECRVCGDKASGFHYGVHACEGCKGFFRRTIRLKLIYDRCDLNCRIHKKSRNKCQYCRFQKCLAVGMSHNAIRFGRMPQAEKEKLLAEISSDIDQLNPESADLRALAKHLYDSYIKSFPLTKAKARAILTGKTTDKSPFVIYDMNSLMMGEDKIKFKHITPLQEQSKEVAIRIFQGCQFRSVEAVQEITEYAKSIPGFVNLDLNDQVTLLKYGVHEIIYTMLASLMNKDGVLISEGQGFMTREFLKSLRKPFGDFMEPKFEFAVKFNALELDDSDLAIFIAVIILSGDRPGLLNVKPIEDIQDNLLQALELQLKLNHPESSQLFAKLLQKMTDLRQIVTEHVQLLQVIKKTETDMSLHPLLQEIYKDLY
Chain of UniProt P0A988 (whole entry, unmodified, looked up): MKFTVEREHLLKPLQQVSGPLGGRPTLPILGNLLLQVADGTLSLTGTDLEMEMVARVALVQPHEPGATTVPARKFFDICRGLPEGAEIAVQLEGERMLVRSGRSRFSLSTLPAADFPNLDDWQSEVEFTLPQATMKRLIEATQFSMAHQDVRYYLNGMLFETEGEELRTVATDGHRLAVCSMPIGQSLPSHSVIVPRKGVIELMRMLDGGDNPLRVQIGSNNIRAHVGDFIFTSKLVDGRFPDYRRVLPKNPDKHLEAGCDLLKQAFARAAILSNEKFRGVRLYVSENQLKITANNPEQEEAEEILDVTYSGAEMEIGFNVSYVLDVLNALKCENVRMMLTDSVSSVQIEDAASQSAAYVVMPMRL
Chain of UniProt P42680 (whole entry, looked up): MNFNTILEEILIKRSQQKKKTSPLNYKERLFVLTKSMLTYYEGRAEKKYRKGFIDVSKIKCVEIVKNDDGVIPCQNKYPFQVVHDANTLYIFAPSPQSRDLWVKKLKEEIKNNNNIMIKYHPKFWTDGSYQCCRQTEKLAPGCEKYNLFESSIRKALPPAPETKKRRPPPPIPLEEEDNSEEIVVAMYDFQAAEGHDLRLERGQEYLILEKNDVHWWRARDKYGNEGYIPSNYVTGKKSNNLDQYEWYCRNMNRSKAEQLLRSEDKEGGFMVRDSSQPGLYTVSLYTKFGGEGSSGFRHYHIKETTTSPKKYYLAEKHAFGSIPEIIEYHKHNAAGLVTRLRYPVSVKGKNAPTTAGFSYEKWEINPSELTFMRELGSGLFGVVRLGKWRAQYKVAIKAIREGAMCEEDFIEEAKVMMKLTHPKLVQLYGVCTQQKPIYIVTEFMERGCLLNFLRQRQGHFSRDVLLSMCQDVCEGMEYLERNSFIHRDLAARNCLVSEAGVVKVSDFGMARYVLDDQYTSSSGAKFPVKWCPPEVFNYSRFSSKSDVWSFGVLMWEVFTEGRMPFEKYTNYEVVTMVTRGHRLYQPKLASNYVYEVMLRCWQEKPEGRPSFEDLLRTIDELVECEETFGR
Chain of UniProt O43570 (whole entry, looked up): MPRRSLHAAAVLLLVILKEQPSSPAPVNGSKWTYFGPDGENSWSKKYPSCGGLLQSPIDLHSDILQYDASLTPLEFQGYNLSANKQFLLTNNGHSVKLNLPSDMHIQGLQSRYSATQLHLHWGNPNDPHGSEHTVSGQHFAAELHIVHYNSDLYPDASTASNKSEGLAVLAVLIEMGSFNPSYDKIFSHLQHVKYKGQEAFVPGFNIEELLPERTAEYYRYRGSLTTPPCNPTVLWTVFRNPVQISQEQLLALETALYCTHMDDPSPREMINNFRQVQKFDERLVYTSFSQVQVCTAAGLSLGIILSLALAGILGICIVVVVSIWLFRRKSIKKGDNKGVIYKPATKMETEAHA
Chain of UniProt P50897 (whole entry, looked up): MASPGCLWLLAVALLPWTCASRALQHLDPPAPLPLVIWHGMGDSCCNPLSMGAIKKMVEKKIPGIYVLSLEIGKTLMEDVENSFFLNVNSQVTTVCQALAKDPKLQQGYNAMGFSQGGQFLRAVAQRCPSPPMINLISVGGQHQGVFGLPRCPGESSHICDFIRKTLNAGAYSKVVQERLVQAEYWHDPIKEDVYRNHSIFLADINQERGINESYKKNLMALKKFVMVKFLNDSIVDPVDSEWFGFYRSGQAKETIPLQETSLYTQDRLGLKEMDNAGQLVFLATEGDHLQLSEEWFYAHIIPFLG

Nc1ccn(C2OC(COP(=O)(O)OP(=O)(O)OP(=O)(O)O)C(O)C2(F)F)c(=O)n1 (centres unmarked)
Hill coefficient (pyrG (Escherichia coli, UniProt P0A7E5, C268A); enzyme activity; with: UTP 0.20 mM): 1.9 ± 0.2

COc1ccccc1-c1n[nH]c2nc(N[C@H]3CC[C@H](NS(=O)(=O)CC(C)C)CC3)ncc12
remaining binding (cdc2-related kinase 12 (Leishmania donovani, UniProt A0A3S7WQK2); competitor, bead pull-down competition; Leishmania donovani extract; 0.0032 µM; baseline: vehicle): 51%

CON(C(=O)c1cn(C)nc1C(F)F)C(C)Cc1c(Cl)cc(Cl)cc1Cl (centres unmarked)
reaction velocity (SDHD/SDHC/SDHB (Sus scrofa, UniProt A5GZW8+D0VWV4+Q007T0); enzyme activity, inhibitor, DCIP reduction; pig; 0.1 µM, with: DCIP 120 µM): 0.0201 µM/s and 0.02 µM/s and 0.0211 µM/s

CN(C)CCCN1C(=O)CSC1c1ccccc1 (centres unmarked)
IC50 (uncharacterized protein (Apis mellifera, UniProt A0A7M6W5G5); Ellman; 1000 µM, with: acetylthiocholine): inactive

CC(C)[C@H]1NC(=O)C[C@H]2/C=C/CCSSC[C@@H](NC1=O)C(=O)N[C@H](Cc1cccc3ccccc13)C(=O)NCC(=O)O2
inhibition (MET (Homo sapiens, UniProt P08581); enzyme activity, inhibitor; 10 µM): 12.6%

Cc1cc(=O)oc2cc(OCCCCCC[Se]C#N)ccc12
selectivity ratio (CA12 (Homo sapiens, UniProt O43570); stopped-flow CO2 hydration; baseline: Ki CA I over Ki CA XII): > 1290

C#CCCCCOc1ccc2c(c1)CCCN2C(=O)CCl
reactivity ratio (Palmitoyl-protein thioesterase 1 (Homo sapiens, UniProt P50897); mass spectrometry profiling, measured: PPT1; H460 cell lysate; 100 µM over 10 µM, UniProt P50897; baseline: high over low concentration): 1.33

CC[C@H](C)[C@H](NC(=O)[C@H](CCCNC(=N)N)NC(=O)[C@H](CCCNC(=N)N)NC(=O)[C@H](CC(C)C)NC(=O)[C@H](Cc1ccccc1)NC(=O)CNC(=O)CNC(=O)[C@@H](N)Cc1ccc(O)cc1)C(=O)N[C@@H](CCCNC(=N)N)C(=O)N1CCC[C@H]1C(=O)N[C@@H](CCCCN)C(=O)N[C@@H](CC(C)C)C(=O)N[C@@H](CCCCN)C(=O)O
Emax (GPR139 (Homo sapiens, UniProt Q6DWJ6); Gαi2 activation, agonist, BRET; HEK293T/17; 40 µM): 75.1% and 82%

COCC1CCCCN1C(=O)n1cc(C(O)(c2ccccc2)c2ccccc2)nn1 (centres unmarked)
SILAC activity ratio (Isoamyl acetate-hydrolyzing esterase 1 homolog (Iah1, Mus musculus, UniProt Q9DB29); probe labelling, inhibitor, competitive ABPP-SILAC, measured: Iah1; mouse T cells; concentration not given, 4 h, single peptide; baseline: treated over DMSO cells, lower = stronger inhibition): 1.77 and 1.44 and 1.32 and 1.27 and 1.24 and 2.35

CC[C@H](C)[C@@H]1NC(=O)[C@H](CC(C)C)NC(=O)CNC(=O)[C@H](CCCNC(=N)N)NC(=O)[C@H](Cc2c[nH]c3ccccc23)NC(=O)[C@H](CCSC)NC(=O)[C@H](CO)NC(=O)[C@H](CCC(=O)O)NC(=O)[C@H](Cc2ccccc2)NC(=O)[C@H](CC(=O)O)NC(=O)[C@H]([C@@H](C)O)NC(=O)CNC(=O)[C@H](CCC(=O)O)NC(=O)[C@H]([C@@H](C)O)NC(=O)CNC(=O)[C@H](CC(=O)O)NC1=O
AlphaLISA signal (MDM2 (Homo sapiens, UniProt Q00987); MDM2-ligand binding, inhibitor, AlphaLISA competition; 12.5 µM, with: GST-tagged MDM2 ligand; lower = stronger inhibition): 1340 a.u. and 1350 a.u. and 1370 a.u.

CCOC(=O)[C@@H]1Cc2c(cc([N+](=O)[O-])cc2[N+](=O)[O-])[C@H](O)[C@]12C(=O)Nc1ccc(Br)cc12
remaining binding (PIK3C2B (Homo sapiens, UniProt O00750); binding, competition with immobilised ligand; 0.1 µM): 99%

CC(C)CC(O)(CC(C)C)c1cn(C(=O)N2CCCC2)nn1
SILAC activity ratio (Platelet-activating factor acetylhydrolase IB subunit alpha2 (Mus musculus, UniProt Q61206); probe labelling, inhibitor, competitive ABPP-SILAC, measured: Pafah1b2; mouse T cells; concentration not given, 4 h, single peptide; baseline: treated over DMSO cells, lower = stronger inhibition): 1.28 and 1.09 and 1.22 and 1.25 and 1.18

CCCCC/C=C\C/C=C\C/C=C\C/C=C\CCCC(=O)NCCc1ccc(O)c(O)c1
Hill coefficient (Trpv1 (Mus musculus, UniProt Q704Y3, Y512F); ion current, agonist, whole-cell patch clamp; Y512F): 1.54 ± 0.22

CC(=O)N[C@@H](CCC(N)=O)C(=O)N[C@@H](CC1CCCCC1)C(=O)N[C@@H](CNC(=O)CCl)C(=O)N[C@@H](CC(C)C)C(=O)N[C@@H](Cc1ccccc1)C(=O)O
ΔG (Beta sliding clamp (Escherichia coli, UniProt P0A988); binding, isothermal titration calorimetry; 25 °C): -9.2 kcal/mol

CS(C)(=O)=Nc1ccc(-c2ccc(-c3nc4cc(O[C@@H]5CO[C@H]6[C@@H]5OC[C@H]6O)[nH]c4cc3F)cc2)cc1
inhibition (MET (Homo sapiens, UniProt P08581, D1228H); enzyme activity, inhibitor; 10 µM): -32%

O=C1NC(=O)c2c1c1cc(F)c[n+]3c1c1c2c2cc(O)ccc2[n]1[Ru-4]312([N]=C=S)[S+]3CC[S+]1CC[S+]2CC3 (centres unmarked)
remaining activity (HIPK3 (Homo sapiens, UniProt Q9H422); enzyme activity; 100 nM, human enzyme, with: 10 µM ATP; baseline: untreated): 63%

N[C@H](C(=O)N1CCCC1)C1CCN(c2nccc3c(-c4ncc(Cl)cc4Cl)cccc23)CC1
kcat (PADI2 (Homo sapiens, UniProt Q9Y2J8); enzyme activity; 0.0983 µM, with: Ca2+ 0.25 mM): 0.353 s⁻¹ and 0.35 s⁻¹

CN(C)CCCSC(=S)N1CCN(C(=O)/C=C/c2coc3ccccc3c2=O)CC1
MST response (Nucleoprotein (N, Tomato spotted wilt virus, UniProt P25999, Y184A); binding, microscale thermophoresis; 7.812 µM; dose series): 839 a.u.

C[C@H](NCc1ccc(-c2ccc(C(F)(F)F)cc2)cc1)C(N)=O
inhibition (PPARG (Homo sapiens, UniProt P37231); radioligand binding, SafetyScreen panel; 1 µM, with: 5.0 nM [3H]Rosiglitazone): -3%

CN(C)[C@H]1C[C@@]23CC[C@@]4(O2)C(=CC[C@]2(C)[C@@H](c5ccc6ccncc6c5)CC[C@H]24)C=C3[C@@H](O)[C@@H]1O
inhibition (TEC (Homo sapiens, UniProt P42680); ATP probe labelling, inhibitor, KiNativ profiling; 1 µM): 4.2%

Repeated from above:
CCOC(=O)[C@@H]1Cc2c(cc([N+](=O)[O-])cc2[N+](=O)[O-])[C@H](O)[C@]12C(=O)Nc1ccc(Br)cc12
remaining binding (PIK3C2B (Homo sapiens, UniProt O00750); binding, competition with immobilised ligand; 0.1 µM): 99%
